Published values collected from several papers.
Numbered parts are unrelated; each lists some results of a single study. Changes are numbered by the printed parent chain.

Study 1
Target: NFIL3, bZIP domain (human)
Technique: DHFR protein complementation
Matrix: yeast
Notes: single substitutions, most at no-binding floor
Reference: wild-type JUN-FOS pair
Direction: higher = stronger binding
Parent: JUN, bZIP domain (human); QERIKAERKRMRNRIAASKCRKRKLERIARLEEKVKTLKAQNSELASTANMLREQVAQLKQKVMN; partner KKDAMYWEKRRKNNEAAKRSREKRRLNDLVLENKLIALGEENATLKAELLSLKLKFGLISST
| Substitution | binding fitness [natural log] |
| --- | --- |
| L52G | -1.53 |
| M51L | -1.5 |
| T48Q | -1.5 |
| E54D | -1.56 |
| S43F | -1.48 |
| A57T | -1.52 |
| A49L | -1.39 |
| A40N | -1.49 |
| V35N | -1.61 |
| L52M | -1.46 |
| K39P | -1.5 |
| V35S | -1.56 |
| K34E | -1.54 |
| A57R | -1.45 |
| K36W | -1.37 |
| I28R | -1.42 |
| K39T | -1.44 |

Study 2
Target: CCND1, cyclin fold, Cln2 fusion (human)
Technique: yeast growth competition, sequencing
Matrix: yeast
Notes: strong parent motif
Reference: not given
Direction: higher = stronger binding
Parent: PKN2 docking peptide (human); VSAVQKLDFSDTM; partner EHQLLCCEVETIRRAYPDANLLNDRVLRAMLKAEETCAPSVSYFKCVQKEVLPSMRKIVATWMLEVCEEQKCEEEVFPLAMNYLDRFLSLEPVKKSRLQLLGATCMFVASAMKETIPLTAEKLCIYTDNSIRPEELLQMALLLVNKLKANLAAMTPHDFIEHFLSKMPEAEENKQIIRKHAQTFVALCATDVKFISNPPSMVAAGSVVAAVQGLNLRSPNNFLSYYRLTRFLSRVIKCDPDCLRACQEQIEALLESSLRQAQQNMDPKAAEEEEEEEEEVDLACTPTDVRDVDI
| Substitution | normalised enrichment score |
| --- | --- |
| VSAVQKLDFSETM [D11E] | 1.91 |
| VGAVQKLDFSDTM [S2G] | 1.44 |
| VSAWQKLDFSDTM [V4W] | 0.507 |
| VSAVQMLDFSDTM [K6M] | 1.39 |
| VSAVQKLDFSPTM [D11P] | 1.2 |
| VSAVQKLAFSDTM [D8A] | 0.944 |
| VSAVQKLDFSTTM [D11T] | 1.59 |
| VSAVQQLDFSDTM [K6Q] | 1.32 |
| VSWVQKLDFSDTM [A3W] | 1.13 |
| VSAVQKRDFSDTM [L7R] | 0.0814 |
| VSAVQKLDFSFTM [D11F] | 1.69 |
| DSAVQKLDFSDTM [V1D] | 0.95 |
| VSAVQNLDFSDTM [K6N] | 1.19 |
| VSAVQRLDFSDTM [K6R] | 2.19 |
| VSAVQKLDFADTM [S10A] | 1.7 |
| VDAVQKLDFSDTM [S2D] | 0.765 |
| PSAVQKLDFSDTM [V1P] | 2.5 |
| LSAVQKLDFSDTM [V1L] | 0.849 |
| VSAVQKLDFSRTM [D11R] | 0.98 |
| VSAVQKGDFSDTM [L7G] | -0.236 |
| VSAVQKLDFSDSM [T12S] | 2.56 |
| VSAVQKLDFSKTM [D11K] | 0.999 |
| CSAVQKLDFSDTM [V1C] | 2.2 |
| VSAVQKLDESDTM [F9E] | 0.345 |
| VSAVQKLDFSDWM [T12W] | 3.59 |

Study 3
Target: Ras GTPase-activating protein-binding protein 1, C-terminal RGG region (G3BP1, Homo sapiens, UniProt Q13283)
Chain of UniProt Q13283 (whole entry, looked up): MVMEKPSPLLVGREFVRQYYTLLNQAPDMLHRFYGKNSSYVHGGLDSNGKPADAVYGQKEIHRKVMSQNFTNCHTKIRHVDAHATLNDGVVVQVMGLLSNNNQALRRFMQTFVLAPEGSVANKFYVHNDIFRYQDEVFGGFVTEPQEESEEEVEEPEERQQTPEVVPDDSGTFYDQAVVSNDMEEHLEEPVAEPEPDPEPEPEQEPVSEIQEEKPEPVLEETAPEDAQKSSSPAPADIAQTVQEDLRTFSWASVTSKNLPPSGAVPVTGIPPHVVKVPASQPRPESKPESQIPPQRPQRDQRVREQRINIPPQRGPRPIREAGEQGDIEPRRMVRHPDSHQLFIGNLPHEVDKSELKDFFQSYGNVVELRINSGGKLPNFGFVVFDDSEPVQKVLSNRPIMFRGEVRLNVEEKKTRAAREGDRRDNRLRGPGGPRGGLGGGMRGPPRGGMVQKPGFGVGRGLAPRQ
Technique: RNA Bind-n-Seq
Molecule type: RNA
Matrix: in vitro
Tested at: 1 µM
Notes: whole 134-nt RNA, ends assumed
Together with: 150 mM KCl
Reference: input library
Direction: higher = stronger binding
All sequences stand within: GGGAGUUCUACAGUCCGACGAUC … UGGAAUUCUCGGGUGUCAAGG
| Oligonucleotide | log2 enrichment |
| --- | --- |
| GUCCUGUGCUACACAUCGUAUGUACCGAAUCGGGUUUUUGGGGUUUUUGGGUUUUUGGAAAGUAUUAUGUUACGCCGUUCGGAUCUGCAC | -0.626 |
| CACAGACAACACGCACCCACACAGACACAGAGGGAAGGGGUUGGGAUGGGGACAAAGUGCACAGCAGGGCGGGGUAGGACCCCAGCCCCU | -0.436 |
| AGUCCUGUGCUACACAUCGUAUGUACCGAAUCGGGAAAAGGAAAAGGGGAAAAGGGGAAAGUAUUAUGUUACGCCGUUCGGAUCUGCACU | -0.591 |
| UGGCAGAGAAAUUGCAGCUGCAGGAGCAGCUCCAGGCAGAAACCGAGCUGUGUGCCGAGGCUGAGGAGCUCCGGGCCCGCCUGACCGCCA | -0.717 |
| CCUCAAGUCCUGUGCUACACAUCGUAUGUACCGAAUCGGUGGAAAGGUUUGGAAAGUAUUAUGUUACGCCGUUCGGAUCUGCACUUCCAG | -0.987 |
| UCCUCAAGUCCUGUGCUACACAUCGUAUGUACCGAAUCGGUGGUGGUUUGGAAAGUAUUAUGUUACGCCGUUCGGAUCUGCACUUCCAGC | -0.556 |
| UCCUGUGCUACACAUCGUAUGUACCGAAUCAAAUUUUUUUAAAUUUAAAUUUUUUUAAAAAAGUAUUAUGUUACGCCGUUCGGAUCUGCA | -1.17 |
| UGUUGAAAUGGGACAGUUGGCAGCGGCUCUGAUGAGCCCGAGAAGAGGCCUGCCCUUGGGUGCGGAGUCUCCCUCCGCACGAUGCUCCCA | -1.55 |
| AAGUCCUGUGCUACACAUCGUAUGUACCGAAUCGGGUUUUUUUGGGUUUGGGUGGGAAAGUAUUAUGUUACGCCGUUCGGAUCUGCACUU | 0.844 |

Study 4
Target: Sal-like protein 4, full length isoform A (SALL4, Homo sapiens, UniProt Q9UJQ4, residues 1-1053)
Chain of UniProt Q9UJQ4 (whole entry, looked up): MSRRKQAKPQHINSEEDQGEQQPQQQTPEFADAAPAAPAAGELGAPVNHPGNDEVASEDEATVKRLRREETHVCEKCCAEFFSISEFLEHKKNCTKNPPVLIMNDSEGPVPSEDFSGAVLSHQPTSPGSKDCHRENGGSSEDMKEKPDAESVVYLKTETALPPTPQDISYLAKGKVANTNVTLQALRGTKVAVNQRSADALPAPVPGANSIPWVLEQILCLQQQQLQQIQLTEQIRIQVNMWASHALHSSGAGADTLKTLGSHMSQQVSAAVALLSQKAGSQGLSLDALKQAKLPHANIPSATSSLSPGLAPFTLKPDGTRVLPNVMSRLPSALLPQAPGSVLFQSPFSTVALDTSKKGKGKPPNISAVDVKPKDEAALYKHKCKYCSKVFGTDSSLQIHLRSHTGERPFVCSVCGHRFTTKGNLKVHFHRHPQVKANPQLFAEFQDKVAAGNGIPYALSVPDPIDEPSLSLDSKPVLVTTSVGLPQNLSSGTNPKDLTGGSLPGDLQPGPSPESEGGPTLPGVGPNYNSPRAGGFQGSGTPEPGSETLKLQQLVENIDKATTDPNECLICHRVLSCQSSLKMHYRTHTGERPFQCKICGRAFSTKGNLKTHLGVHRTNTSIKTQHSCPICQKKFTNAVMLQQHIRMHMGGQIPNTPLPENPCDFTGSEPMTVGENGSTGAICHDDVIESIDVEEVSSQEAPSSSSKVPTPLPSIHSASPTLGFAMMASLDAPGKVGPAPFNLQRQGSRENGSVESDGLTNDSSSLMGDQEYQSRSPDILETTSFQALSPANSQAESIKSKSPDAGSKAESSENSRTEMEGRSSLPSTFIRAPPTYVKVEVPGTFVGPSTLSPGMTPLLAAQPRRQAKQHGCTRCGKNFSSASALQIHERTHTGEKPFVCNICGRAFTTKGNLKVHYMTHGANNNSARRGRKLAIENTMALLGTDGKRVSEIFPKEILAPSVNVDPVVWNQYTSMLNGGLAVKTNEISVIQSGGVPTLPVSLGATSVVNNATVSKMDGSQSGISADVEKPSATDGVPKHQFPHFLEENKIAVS
Technique: universal PBM
Molecule type: double-stranded DNA, one strand shown
Matrix: in vitro
Tested at: 600 nM
Notes: 8-mer, flanks averaged, mean of replicates
Direction: higher = stronger binding
| Oligonucleotide | E-score |
| --- | --- |
| GAAGAAAA | 0.116 |
| GTCTATTA | 0.231 |
| CGGGTCCC | -0.378 |
| GCAAAGAA | 0.0965 |
| ATGTGTAC | 0.162 |
| CCAACTTA | 0.0126 |
| ACATGGCC | -0.00783 |
| AGAGCCAT | -0.0705 |
| TAGTAACA | 0.17 |
| CGGGGTAC | -0.292 |
| GCTATTCA | 0.136 |
| TATAAAAA | 0.383 |
| AAGTACAA | 0.18 |
| GATTCAAA | 0.148 |
| CGCCAAGA | -0.233 |
| AGTCTACC | -0.146 |
| CGTACATC | -0.0512 |

Study 5
Target: ABI1, truncated, D143A, DHFR fusion (Arabidopsis thaliana)
Technique: DHFR PCA, deep sequencing
Matrix: yeast
Notes: methotrexate growth selection, single substitutions
Together with: (+)-ABA 0.0091 µM
Reference: wild-type fitted maximum
Direction: higher = stronger binding
Parent: PYL1, truncated, DHFR fusion (Arabidopsis thaliana); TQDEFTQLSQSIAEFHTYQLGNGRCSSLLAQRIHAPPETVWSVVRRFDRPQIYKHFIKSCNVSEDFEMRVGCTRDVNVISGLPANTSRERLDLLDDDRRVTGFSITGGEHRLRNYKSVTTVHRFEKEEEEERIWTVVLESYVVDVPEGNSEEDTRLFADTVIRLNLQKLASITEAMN; partner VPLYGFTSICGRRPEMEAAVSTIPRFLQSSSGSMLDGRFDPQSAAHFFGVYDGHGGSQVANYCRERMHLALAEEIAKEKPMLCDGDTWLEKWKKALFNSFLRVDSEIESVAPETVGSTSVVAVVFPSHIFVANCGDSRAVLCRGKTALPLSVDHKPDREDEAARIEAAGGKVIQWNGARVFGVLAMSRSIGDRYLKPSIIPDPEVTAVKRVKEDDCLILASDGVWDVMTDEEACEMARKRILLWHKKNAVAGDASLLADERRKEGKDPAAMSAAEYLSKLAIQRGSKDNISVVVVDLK
| Substitution | relative binding score [%] |
| --- | --- |
| F15G | 0.215 |
| E139N | -3.55 |
| L93Y | 12.1 |
| M176F | -4.28 |
| D3Q | 38.9 |
| A13N | 24.8 |
| R111F | 2.93 |
| S117N | -3.26 |
| K58S | 9.14 |
| Q19E | 52.3 |
| D144P | -0.534 |
| T1Q | 23.9 |
| Q2S | 32.3 |
| N114E | 2.34 |
| F56L | 2.71 |
